Measurements gathered from unrelated publications.
Lines come from different studies, so protocols differ.
UniProt P30530, sequence (whole entry, looked up): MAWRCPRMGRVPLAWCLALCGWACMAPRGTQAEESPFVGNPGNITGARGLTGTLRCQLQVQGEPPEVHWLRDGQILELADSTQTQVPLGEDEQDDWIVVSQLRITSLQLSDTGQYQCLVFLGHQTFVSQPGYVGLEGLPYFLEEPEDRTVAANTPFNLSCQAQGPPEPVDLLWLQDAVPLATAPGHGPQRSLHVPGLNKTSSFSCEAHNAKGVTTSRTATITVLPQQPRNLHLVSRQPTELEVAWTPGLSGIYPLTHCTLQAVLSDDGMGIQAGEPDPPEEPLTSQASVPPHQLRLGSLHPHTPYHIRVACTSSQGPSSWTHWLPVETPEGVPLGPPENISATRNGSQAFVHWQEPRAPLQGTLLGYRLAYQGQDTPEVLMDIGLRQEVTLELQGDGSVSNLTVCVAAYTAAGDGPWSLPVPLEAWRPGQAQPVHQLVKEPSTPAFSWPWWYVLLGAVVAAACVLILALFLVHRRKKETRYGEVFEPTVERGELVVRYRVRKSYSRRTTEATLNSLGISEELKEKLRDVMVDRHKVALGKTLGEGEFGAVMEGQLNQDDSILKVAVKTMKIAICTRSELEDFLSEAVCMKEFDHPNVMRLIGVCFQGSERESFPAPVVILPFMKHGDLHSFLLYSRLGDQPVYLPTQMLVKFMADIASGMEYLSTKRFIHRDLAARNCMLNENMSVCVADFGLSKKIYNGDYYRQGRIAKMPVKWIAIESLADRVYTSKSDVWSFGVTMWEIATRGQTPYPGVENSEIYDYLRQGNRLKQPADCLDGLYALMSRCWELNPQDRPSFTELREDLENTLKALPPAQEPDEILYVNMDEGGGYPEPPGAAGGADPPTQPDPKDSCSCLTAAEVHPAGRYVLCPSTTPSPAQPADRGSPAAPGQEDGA
UniProt Q07002, sequence (whole entry, looked up): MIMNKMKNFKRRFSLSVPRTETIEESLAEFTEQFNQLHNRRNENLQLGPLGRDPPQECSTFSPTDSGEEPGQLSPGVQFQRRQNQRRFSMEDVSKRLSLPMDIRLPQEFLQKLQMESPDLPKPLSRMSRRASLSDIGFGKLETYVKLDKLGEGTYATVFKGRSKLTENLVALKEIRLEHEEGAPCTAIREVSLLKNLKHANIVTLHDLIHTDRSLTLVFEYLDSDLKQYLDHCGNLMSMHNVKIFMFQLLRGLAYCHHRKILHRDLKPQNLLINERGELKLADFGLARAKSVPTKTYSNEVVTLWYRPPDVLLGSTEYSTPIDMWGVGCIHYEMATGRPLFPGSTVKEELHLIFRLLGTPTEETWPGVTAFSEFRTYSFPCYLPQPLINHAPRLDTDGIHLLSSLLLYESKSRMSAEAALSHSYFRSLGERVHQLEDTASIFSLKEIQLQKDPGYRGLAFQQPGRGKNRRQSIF
UniProt Q86Z02, sequence (whole entry, looked up): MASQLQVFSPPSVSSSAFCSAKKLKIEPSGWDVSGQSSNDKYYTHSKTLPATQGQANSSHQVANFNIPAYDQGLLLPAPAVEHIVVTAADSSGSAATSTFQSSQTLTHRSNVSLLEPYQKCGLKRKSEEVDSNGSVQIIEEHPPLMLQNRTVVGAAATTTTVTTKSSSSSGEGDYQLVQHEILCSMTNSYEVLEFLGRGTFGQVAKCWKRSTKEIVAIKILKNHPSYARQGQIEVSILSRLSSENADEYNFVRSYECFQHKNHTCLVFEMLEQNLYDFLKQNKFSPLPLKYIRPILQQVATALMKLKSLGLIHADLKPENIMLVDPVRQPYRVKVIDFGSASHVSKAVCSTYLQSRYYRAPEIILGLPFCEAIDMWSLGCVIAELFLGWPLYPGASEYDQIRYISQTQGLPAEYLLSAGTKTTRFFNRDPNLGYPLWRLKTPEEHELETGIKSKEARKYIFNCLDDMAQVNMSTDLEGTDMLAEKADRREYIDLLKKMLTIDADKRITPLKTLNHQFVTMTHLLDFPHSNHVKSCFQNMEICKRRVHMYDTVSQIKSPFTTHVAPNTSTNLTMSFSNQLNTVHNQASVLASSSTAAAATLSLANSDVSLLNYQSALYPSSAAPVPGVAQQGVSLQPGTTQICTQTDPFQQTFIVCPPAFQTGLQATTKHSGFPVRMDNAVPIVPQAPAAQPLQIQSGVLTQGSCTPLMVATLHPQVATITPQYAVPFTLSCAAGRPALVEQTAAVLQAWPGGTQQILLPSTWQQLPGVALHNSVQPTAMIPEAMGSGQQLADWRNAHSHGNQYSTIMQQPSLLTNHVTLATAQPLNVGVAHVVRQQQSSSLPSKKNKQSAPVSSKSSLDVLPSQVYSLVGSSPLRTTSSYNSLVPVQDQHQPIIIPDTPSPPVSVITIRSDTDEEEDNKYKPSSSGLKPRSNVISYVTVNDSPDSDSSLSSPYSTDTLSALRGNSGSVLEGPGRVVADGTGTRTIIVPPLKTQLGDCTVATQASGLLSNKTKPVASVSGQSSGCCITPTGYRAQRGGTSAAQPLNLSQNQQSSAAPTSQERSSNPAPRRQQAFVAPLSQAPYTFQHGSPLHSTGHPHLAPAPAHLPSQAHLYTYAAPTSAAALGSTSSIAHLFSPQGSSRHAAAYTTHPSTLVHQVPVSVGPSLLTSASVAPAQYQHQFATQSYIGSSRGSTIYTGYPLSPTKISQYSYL
UniProt Q16644, sequence (whole entry, looked up): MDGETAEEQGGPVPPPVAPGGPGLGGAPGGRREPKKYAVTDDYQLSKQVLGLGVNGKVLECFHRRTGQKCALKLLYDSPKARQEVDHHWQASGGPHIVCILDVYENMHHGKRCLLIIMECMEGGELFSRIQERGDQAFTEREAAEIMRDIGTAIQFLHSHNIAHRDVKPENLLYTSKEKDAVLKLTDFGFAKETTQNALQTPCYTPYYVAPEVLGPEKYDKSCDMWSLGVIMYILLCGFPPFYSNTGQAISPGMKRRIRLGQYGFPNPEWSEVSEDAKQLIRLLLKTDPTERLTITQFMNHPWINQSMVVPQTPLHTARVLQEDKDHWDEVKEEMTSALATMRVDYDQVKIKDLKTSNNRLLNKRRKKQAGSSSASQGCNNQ
UniProt P10721, sequence (whole entry, unmodified, looked up): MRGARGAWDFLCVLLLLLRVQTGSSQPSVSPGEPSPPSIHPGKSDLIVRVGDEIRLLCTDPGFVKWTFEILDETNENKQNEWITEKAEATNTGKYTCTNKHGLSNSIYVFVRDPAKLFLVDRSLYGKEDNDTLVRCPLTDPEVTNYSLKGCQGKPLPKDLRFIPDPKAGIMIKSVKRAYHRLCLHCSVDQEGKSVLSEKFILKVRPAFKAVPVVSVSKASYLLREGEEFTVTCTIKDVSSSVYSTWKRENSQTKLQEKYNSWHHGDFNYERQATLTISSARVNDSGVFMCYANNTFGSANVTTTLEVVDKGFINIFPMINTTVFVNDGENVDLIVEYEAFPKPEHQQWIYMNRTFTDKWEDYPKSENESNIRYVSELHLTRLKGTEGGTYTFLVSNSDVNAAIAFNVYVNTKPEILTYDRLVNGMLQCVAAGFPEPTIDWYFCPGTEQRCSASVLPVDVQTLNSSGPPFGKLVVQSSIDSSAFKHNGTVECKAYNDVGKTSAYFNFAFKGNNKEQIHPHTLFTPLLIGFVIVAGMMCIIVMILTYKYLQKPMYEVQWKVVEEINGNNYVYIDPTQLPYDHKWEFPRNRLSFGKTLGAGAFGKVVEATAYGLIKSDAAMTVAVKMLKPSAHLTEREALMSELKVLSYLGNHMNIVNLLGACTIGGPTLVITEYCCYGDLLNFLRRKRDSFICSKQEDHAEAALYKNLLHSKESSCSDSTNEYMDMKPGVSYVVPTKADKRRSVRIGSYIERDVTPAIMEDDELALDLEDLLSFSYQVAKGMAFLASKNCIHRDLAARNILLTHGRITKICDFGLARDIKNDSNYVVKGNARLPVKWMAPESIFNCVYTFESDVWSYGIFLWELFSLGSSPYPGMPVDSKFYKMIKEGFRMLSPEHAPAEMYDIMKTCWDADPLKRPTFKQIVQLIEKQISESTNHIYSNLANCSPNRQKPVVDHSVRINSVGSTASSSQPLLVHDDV

| Structure (SMILES) | tested on | assay | test system | conditions | measurement | result |
| --- | --- | --- | --- | --- | --- | --- |
| NS(=O)(=O)c1nnc(NC(=O)CCC2CCC(F)(F)CC2)s1 |  | metabolic stability | mouse, liver microsomes | 1 h | compound remaining | 91% |
| CCCCC(=O)Nc1ccc(-c2ccc3ncn(CCC)c(=O)c3c2)cn1 | KIT (Homo sapiens, UniProt P10721, A829P) | binding, competition with immobilised ligand |  | 0.5 µM | remaining binding | 100% |
| O=C(N1CCCCC1)C12CC(c3ccccc3)(C1)C2 |  | metabolic stability | human, liver microsomes | 2 µM, 40 min, pH 7.4 | compound remaining | 67% |
| N#C[C@@]12C[C@@H]1[C@@H](n1cnc3c(N[C@@H](C4CCC4)C4CC4)nc(I)nc31)[C@H](O)[C@@H]2O |  | metabolic stability | human, liver microsomes | 1 h | compound remaining | 68.1% |
| Cc1ccc(Cn2cc(C(=O)NN)c(=O)c3cc(Oc4ccccc4)ccc32)cc1 |  | metabolic stability | human, liver microsomes | 1 µM, 30 min | compound remaining | > 99% |
| C[C@@H](O)[C@H](NC(=O)[C@H](Cc1ccc(O)cc1)NC(=O)[C@H](Cc1ccc(O)cc1)NC(=O)[C@H](CO)NC(=O)[C@H](CCCNC(=N)N)NC(=O)[C@H](Cc1c[nH]cn1)NC(=O)[C@@H](N)Cc1c[nH]c2ccccc12)C(=O)N[C@@H](Cc1c[nH]c2ccccc12)C(=O)N[C@@H](CC(N)=O)C(N)=O |  | chemical stability | human, serum | 20 µM, 4 h | compound remaining | 0.3% |
| Cc1cc([C@@H](C)Nc2ccccc2C(=O)O)c2nc(N3CCC(F)(F)CC3)c(C#N)c(=O)n2c1 | AXL (Homo sapiens, UniProt P30530) | binding, competition with immobilised ligand |  | 1 µM | remaining binding | 78% |
| COc1cc(-c2cncc3c2CN(C)Cc2cc(N4CCNCC4)ccc2-3)cc(OC)c1OC | MAPKAPK3 (Homo sapiens, UniProt Q16644) | enzyme activity, inhibitor |  | 1 µM | remaining activity | 114% |
| CNc1ncc2c(/C=C/C(=O)N3CCC(OC)CC3)nn(Cc3cccc(C(F)(F)F)c3)c2n1 | HIPK1 (Homo sapiens, UniProt Q86Z02) | enzyme activity, inhibitor, radiometric |  | 1 µM | remaining activity | 105% |
| O=C(O)Cc1ccccc1Nc1c(Cl)cccc1Cl |  | metabolic stability | human, liver microsomes | 2 µM, 15 min, pH 7.4 | compound remaining | 38% |
| C=CC(=O)N1CCC(COCC(=O)N2CCN(c3nc(-c4cnc(N)nc4C(F)F)nc(N4CCOC[C@@H]4C)n3)CC2)CC1 | CDK18 (Homo sapiens, UniProt Q07002) | binding, competition with immobilised ligand |  | 1 µM | remaining binding | 91% |
| C[C@@H](O)[C@H](NC(=O)[C@H](Cc1ccc(O)cc1)NC(=O)[C@H](Cc1ccc(O)cc1)NC(=O)[C@H](CO)NC(=O)[C@H](CCCNC(=N)N)NC(=O)[C@H](Cc1c[nH]cn1)NC(=O)[C@@H](N)Cc1c[nH]c2ccccc12)C(=O)N[C@@H](Cc1c[nH]c2ccccc12)C(=O)N[C@@H](CC(N)=O)C(=O)NCCCC[C@H](NC(=O)[C@H](CC(N)=O)NC(=O)[C@H](Cc1c[nH]c2ccccc12)NC(=O)[C@@H](NC(=O)[C@H](Cc1ccc(O)cc1)NC(=O)[C@H](Cc1ccc(O)cc1)NC(=O)[C@H](CO)NC(=O)[C@H](CCCNC(=N)N)NC(=O)[C@H](Cc1c[nH]cn1)NC(=O)[C@@H](N)Cc1c[nH]c2ccccc12)[C@@H](C)O)C(=O)NCCCC[C@H](NC(=O)[C@H](CCCCNC(=O)[C@H](CC(N)=O)NC(=O)[C@H](Cc1c[nH]c2ccccc12)NC(=O)[C@@H](NC(=O)[C@H](Cc1ccc(O)cc1)NC(=O)[C@H](Cc1ccc(O)cc1)NC(=O)[C@H](CO)NC(=O)[C@H](CCCNC(=N)N)NC(=O)[C@H](Cc1c[nH]cn1)NC(=O)[C@@H](N)Cc1c[nH]c2ccccc12)[C@@H](C)O)NC(=O)[C@H](CC(N)=O)NC(=O)[C@H](Cc1c[nH]c2ccccc12)NC(=O)[C@@H](NC(=O)[C@H](Cc1ccc(O)cc1)NC(=O)[C@H](Cc1ccc(O)cc1)NC(=O)[C@H](CO)NC(=O)[C@H](CCCNC(=N)N)NC(=O)[C@H](Cc1c[nH]cn1)NC(=O)[C@@H](N)Cc1c[nH]c2ccccc12)[C@@H](C)O)C(=O)N[C@@H](CCCCN)C(=O)N[C@@H](CCCCN)C(=O)N[C@@H](CCCCN)C(N)=O |  | chemical stability | human, serum | 20 µM, 1 h | compound remaining | 33% |
| O=C(Nc1ccc(CN2CCOCC2)c(C(F)(F)F)c1)c1ccc(C#Cc2cccc3cnccc23)cn1 |  | metabolic stability | mouse, liver microsomes | 10 min | compound remaining | 81.6% |
| C[C@@H](O)[C@H](NC(=O)[C@H](Cc1ccc(O)cc1)NC(=O)[C@H](Cc1ccc(O)cc1)NC(=O)[C@H](CO)NC(=O)[C@H](CCCNC(=N)N)NC(=O)[C@H](Cc1c[nH]cn1)NC(=O)[C@@H](N)Cc1c[nH]c2ccccc12)C(=O)N[C@@H](Cc1c[nH]c2ccccc12)C(=O)N[C@@H](CC(N)=O)C(=O)NCCCC[C@H](NC(=O)[C@H](CCCCNC(=O)[C@H](CC(N)=O)NC(=O)[C@H](Cc1c[nH]c2ccccc12)NC(=O)[C@@H](NC(=O)[C@H](Cc1ccc(O)cc1)NC(=O)[C@H](Cc1ccc(O)cc1)NC(=O)[C@H](CO)NC(=O)[C@H](CCCNC(=N)N)NC(=O)[C@H](Cc1c[nH]cn1)NC(=O)[C@@H](N)Cc1c[nH]c2ccccc12)[C@@H](C)O)NC(=O)[C@H](CC(N)=O)NC(=O)[C@H](Cc1c[nH]c2ccccc12)NC(=O)[C@@H](NC(=O)[C@H](Cc1ccc(O)cc1)NC(=O)[C@H](Cc1ccc(O)cc1)NC(=O)[C@H](CO)NC(=O)[C@H](CCCNC(=N)N)NC(=O)[C@H](Cc1c[nH]cn1)NC(=O)[C@@H](N)Cc1c[nH]c2ccccc12)[C@@H](C)O)C(=O)N[C@@H](CCCCN)C(=O)N[C@@H](CCCCN)C(N)=O |  | chemical stability | human, serum | 20 µM, 4 h | compound remaining | 20% |
| O=C(c1ccc(F)cc1)C1CCN(CCn2c(=O)[nH]c3ccccc3c2=O)CC1 |  | metabolic stability | dog, liver microsomes | 30 min | compound remaining | 64.5% |
| CC(C)[N+](C)(CCOC(=O)C1c2ccccc2Oc2ccccc21)C(C)C |  | metabolic stability | human, plasma | 1 h | compound remaining | 20.2% |

Repeated from above:
| Structure (SMILES) | tested on | assay | test system | conditions | measurement | result |
| --- | --- | --- | --- | --- | --- | --- |
| O=C(c1ccc(F)cc1)C1CCN(CCn2c(=O)[nH]c3ccccc3c2=O)CC1 |  | metabolic stability | dog, liver microsomes | 30 min | compound remaining | 64.5% |
| CC(C)[N+](C)(CCOC(=O)C1c2ccccc2Oc2ccccc21)C(C)C |  | metabolic stability | human, plasma | 1 h | compound remaining | 20.2% |
